Assay results gathered from unrelated publications.
Each line is one published result; not all experiments were run side by side. ± marks the error that the study gave.

Structure (SMILES)	target or system	assay	test system	conditions	how to read	quantity	value
C[n+]1ccc(/C=N/NC(=O)c2ccc3ccc(C(=O)N/N=C/c4cc[n+](C)c5ccccc45)nc3n2)c2ccccc21	telomeric G4 DNA hybrid-2	FRET melting	–	1 µM, DNA 0.2 µM, together with: duplex DNA competitor 10 µM	–	ΔTm	26.7 ± 1.4 °C
CC(=O)[O-].O.O.O.O.[Ni+2].[O-]c1ccc(Br)cc1C=NCCN1CCOCC1	–	FRAP	–	120 µM	–	ferric reducing power	25.9%
CNS(=O)(=O)Nc1nccc(Cc2c(C)c3ccc(Oc4ncccc4F)cc3oc2=O)c1F	COV362	cell viability	–	7 days	–	IC50	> 1 µM
COC1CN([C@H]2CC[C@H]([C@@]3(C)Oc4c(Cl)cc(C(=O)NCc5c(SC)cc(C)[nH]c5=O)c(C)c4O3)CC2)C1	–	RNA-seq, item: HOMER3	human, whole blood	dose not given, 24 h	baseline: pretreatment baseline	log2 fold change	1.07
O=C(N/N=C/c1cc[n+](CC2CC2)c2ccccc12)c1cccc(C(=O)N/N=C/c2cc[n+](CC3CC3)c3ccccc23)c1	telomeric G4 DNA hybrid-2	FRET melting	–	1 µM, DNA 0.2 µM, together with: duplex DNA competitor 10 µM	–	ΔTm	13.5 ± 0.4 °C
C=CC(=O)Nc1cccc(Cn2ncc3cnc(Nc4cnn(CCOC)c4)nc32)c1	TESK1 human	binding, KINOMEscan	–	100 nM	lower = stronger binding	percent of control	100%
Cc1ncsc1-c1ccc(C(C)NC(=O)C2CC(O)CN2C(=O)C(NC(=O)CCCCCCCCCCN2CCCC(Nc3ncc(Cl)c(Nc4ccccc4S(=O)(=O)C(C)C)n3)C2)C(C)(C)C)cc1 (stereo not shown)	22Rv1	RNA-seq, item: STK10 mRNA	–	concentration not given	baseline: DMSO	log2 fold change	-1.37
O=C(N/N=C/c1ccc(C[n+]2ccccc2)cc1)c1ccc2ccc(C(=O)N/N=C/c3ccc(C[n+]4ccccc4)cc3)nc2n1	telomeric G4 DNA hybrid-2	FRET melting	–	1 µM, DNA 0.2 µM, together with: duplex DNA competitor 10 µM	–	ΔTm	15.7 ± 0.2 °C
C=CC(=O)N1[C@@H](c2ccc3c(c2)OCO3)c2[nH]c3ccccc3c2C[C@H]1C(=O)N1CCN(C)CC1	human cyclin E1 wild type-3xFLAG:CDK2	co-IP with TMT proteomics, item: PNN	–	concentration not given, Q9H307	baseline: wild type DMSO	relative co-enrichment	81%
C[n+]1cc(/C=N/NC(=O)c2cc(C(=O)N/N=C/c3cc4ccccc4[n+](C)c3)ncn2)cc2ccccc21	telomeric G4 DNA hybrid-2	FRET melting	–	1 µM, DNA 0.2 µM, together with: duplex DNA competitor 10 µM	–	ΔTm	2.6 ± 0.4 °C
N=C(N)NCCC[C@@H]1NC(=O)[C@H](CCCNC(=N)N)NC(=O)[C@@H](CCCNC(=N)N)NC(=O)[C@@H](CCCNC(=N)N)NC(=O)[C@@H](C(c2ccccc2)c2ccccc2)NC(=O)[C@H](Cc2c[nH]c3ccccc23)NC(=O)[C@@H](C(c2ccccc2)c2ccccc2)NC1=O	Aspergillus fumigatus	–	Af 293	MIC, 12 h	–	reduction of viable cells	> 65%
CN1CCCNC(=O)c2cccc(c2)C(=O)NCCCN(C)CCCNc2cccc3c2C(=O)c2cccc(c2C3=O)NCCC1	SAS	RNA-Seq, item: TMEM39A mRNA	–	1 µM, 6 h	baseline: untreated cells	log2 fold change	-1.41
Nc1ncc(-c2cc(-c3cnn(CC(F)(F)F)c3)ncc2F)nc1C(=O)NC1CNCC(F)C1 (stereo not shown)	SYK	KINOMEscan	–	1 µM	baseline: DMSO control	remaining binding	100%

Excerpt of the above:
Structure (SMILES)	target or system	assay	test system	conditions	how to read	quantity	value
N=C(N)NCCC[C@@H]1NC(=O)[C@H](CCCNC(=N)N)NC(=O)[C@@H](CCCNC(=N)N)NC(=O)[C@@H](CCCNC(=N)N)NC(=O)[C@@H](C(c2ccccc2)c2ccccc2)NC(=O)[C@H](Cc2c[nH]c3ccccc23)NC(=O)[C@@H](C(c2ccccc2)c2ccccc2)NC1=O	Aspergillus fumigatus	–	Af 293	MIC, 12 h	–	reduction of viable cells	> 65%
